Measurements from different studies.
Parts stem from different laboratories: compare values within a part only.

Sample 1 — technique: protein binding microarray; form: double-stranded DNA, one strand shown; matrix: in vitro; concentration: not given; baseline: not given; direction: higher = stronger binding; measurement: E-score
Target: Histone acetyltransferase KAT6A, winged helix 1, GST fusion (KAT6A, Homo sapiens, UniProt Q92794, residues 1-85)
Notes: 8-mer, flanks averaged, mean of 2 arrays, mostly near background
Construct (chain): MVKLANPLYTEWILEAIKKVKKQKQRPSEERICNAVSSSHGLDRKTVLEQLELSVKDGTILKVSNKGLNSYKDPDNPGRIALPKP
GGTTAAAA: 0.00566
ATATAAAA: -0.217
CATGGAGA: -0.246
CTAGACAC: -0.137
ATGTCGCC: 0.147
GAGGAGGC: 0.00951
CAAACGGC: 0.266
ACGCACCT: -0.0265
ATTCGCGG: 0.278
CCACGGAA: 0.316
TACACTGA: -0.0995
GCCCGTAC: 0.33
GGCTGAAC: 0.0673
GATCCCAA: -0.199
GAACGATC: -0.104
AGTACGGG: 0.262
GGGTCTAC: 0.0223
GCAAGAGC: -0.00351
CTCTTGGA: -0.116
AGAGGGCC: 0.0643
GCACGGAC: 0.28
CAAAAAGC: 0.0194
GCCTTACC: 0.0244
GAGTTCGC: 0.134

Sample 2 — technique: RNA Bind-n-Seq; form: RNA; matrix: in vitro; concentration: 365 nM; baseline: no-protein control; direction: higher = stronger binding; measurement: RBNS enrichment (R)
Target: RNA binding protein fox-1 homolog 2, RRM domain, GST-SBP tag (RBFOX2, Homo sapiens, UniProt O43251-10, residues 100-194)
Notes: natural RNA segment, single round, ends assumed
Shared flanks, not repeated: GGGAGUUCUACAGUCCGACGAUC … UGGAAUUCUCGGGUGCCAA
Construct (chain): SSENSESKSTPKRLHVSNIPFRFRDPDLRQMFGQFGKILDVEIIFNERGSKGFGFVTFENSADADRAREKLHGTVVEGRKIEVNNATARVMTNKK
GACAGUGACCGAUUUCUCUGGGUUGGGCCAAGACUUUAUUUACUGCAUCAUGCAUGACUCACUCAGGGGCCCUUGGGGCCCUCUUCUCUAUGAUAUGAAUACUGUGUGUG: 4.96
CCAGUCAAGGUUGCUCUGAACUUUCCCAUAACCAUUAUCCCCCAAGACCACCAGGCUCUGAGUGACCUCUCUAAUUCUGUCUUCCCACCCACCAGUGACUUGACUGCUCU: 0.774
CAAGUGUGAGCUUUCUGAGCAAGGGGAUUUUUUUGCUUCAGAGAAGUAAGUGUCUGUCCGUUUUCAUUCAGGGGAAAACUUGGUGUGAGCUUUGUCUGUCUGUGACCUCC: 0.465
UUAAGCUGCUAAUUGUUGAGAGAGAUUUAAAUUUAUGUUCUGUCUGGUCGCUGCAGAUUCUCAGCAGCACUUUUACUGUAUAUAGAAAUUGAAAUAAAGACCUCAGCUAU: 0.336
GAAACUUUAAAUUUUUAAAAGGCUUCUAGUUAGCUGCUUUAAAUCUAUCUAUAUAAUGUAGUAUGAUGUAAUGUGGUCUUUUUUUUAGAUUUUGUGCAGUUAAUACUUAA: 1.13
UUGGGAGUGAGGAUGUGUCCAUUUGGACCAAACACUUUGUUUUGUUUUAUUUAGAUUUUGUUUUUCAUCUUACUAUGUACCAGUGGCACUUAACCAAAAGAUACAGUAAC: 0.392
CCCGGCCCAACCCAGCCCAGCCCAGCUCAGCUCAGCUACUGCCAAGGGCAGGACCAAUGGCUGAGCCUCGUGUCCAGACUCAGAGGGCUGGAUUUUGGUUCCCUUGUAAA: 0.368
UAAAUAAUAAAGGUUUUAAUUCAGAUCUAGAAGAAAACUGCACAGUUGAAUGCAGAUUUUUAUCCAUAGAUAACUGUAGUGUUUUGAAAUGAUAGGCCCUACCUUUGAAG: 1.01
CACGUGGGCUGAGCUGACUUGAUGCUCCUAUGGGUGGUGCCCGGCCCCCACGGGGGUUCACUAGGUUUGGGCCUGAGAACACCUGUCUGGACAAAGGUGAUGAAACCAAG: 0.867
UGUCUGACACACAAAUGGUCUUUUCAGCCACAGUCUUAUCAAGUAUCCUAUAUGUAUUCCUUUCUAAACUGCUACUCAUGAAUGAGGAAAGUCUGAUGCUAAGAUACUGC: 1.13
UUUAUAAUUCUGGGAAGCAAAACCCAUGCCUCCCCCUAGCCAUUUUUACUGUUAUCCUAUUUAGAUGGCCAUGAAGAGGAUGCUGUGAAAUUCCCAACAAACAUUGAUGC: 0.404
GACUCUUAUCCAGAGGGCUCAGAGACAGAGUGUUCUUUCAUUUGUACCGCCCUCUCAGUUCAACUUUGCUCACUCAGGUUUCCACUUGGAAGACAUCUCCACAAGUCAGA: 0.356

Sample 3 — technique: RNA Bind-n-Seq; form: RNA; matrix: in vitro; concentration: 20 nM; notes: 6-mer, flanks averaged, single round; together with: 150 mM LiCl; baseline: input library; direction: higher = stronger binding; measurement: 6-mer enrichment (R)
Target: TAR DNA-binding protein 43, full length, His tag (TARDBP, Homo sapiens, UniProt Q13148, residues 1-414)
CGCUUA: 0.888
GUGAAU: 1.24
AGGCCU: 0.925
UAGCGU: 1.02
CGUUGG: 1.01
CUAGGG: 0.981
CGGGGG: 1.32
CCGCAC: 0.929
UUAGGG: 1.1
UGCAUU: 0.956
CGGCCC: 1.04
CACAGU: 0.884
AGCUGG: 0.965
UGUACG: 1.04
AGGCUC: 0.868
AGUUAA: 0.924
AAAUAC: 0.85
CUAUCA: 0.845
UCCGCA: 0.864
UCCCAC: 0.925
GGGUUC: 0.981
CACUCG: 0.82
UAUUAG: 1
CCAACA: 0.854
UUCAGC: 0.881

Sample 4 — technique: universal PBM; form: double-stranded DNA, one strand shown; matrix: in vitro; concentration: 600 nM; direction: higher = stronger binding; measurement: E-score
Target: Sal-like protein 4, full length isoform A (SALL4, Homo sapiens, UniProt Q9UJQ4, residues 1-1053)
Sequence of UniProt Q9UJQ4 (whole entry, looked up): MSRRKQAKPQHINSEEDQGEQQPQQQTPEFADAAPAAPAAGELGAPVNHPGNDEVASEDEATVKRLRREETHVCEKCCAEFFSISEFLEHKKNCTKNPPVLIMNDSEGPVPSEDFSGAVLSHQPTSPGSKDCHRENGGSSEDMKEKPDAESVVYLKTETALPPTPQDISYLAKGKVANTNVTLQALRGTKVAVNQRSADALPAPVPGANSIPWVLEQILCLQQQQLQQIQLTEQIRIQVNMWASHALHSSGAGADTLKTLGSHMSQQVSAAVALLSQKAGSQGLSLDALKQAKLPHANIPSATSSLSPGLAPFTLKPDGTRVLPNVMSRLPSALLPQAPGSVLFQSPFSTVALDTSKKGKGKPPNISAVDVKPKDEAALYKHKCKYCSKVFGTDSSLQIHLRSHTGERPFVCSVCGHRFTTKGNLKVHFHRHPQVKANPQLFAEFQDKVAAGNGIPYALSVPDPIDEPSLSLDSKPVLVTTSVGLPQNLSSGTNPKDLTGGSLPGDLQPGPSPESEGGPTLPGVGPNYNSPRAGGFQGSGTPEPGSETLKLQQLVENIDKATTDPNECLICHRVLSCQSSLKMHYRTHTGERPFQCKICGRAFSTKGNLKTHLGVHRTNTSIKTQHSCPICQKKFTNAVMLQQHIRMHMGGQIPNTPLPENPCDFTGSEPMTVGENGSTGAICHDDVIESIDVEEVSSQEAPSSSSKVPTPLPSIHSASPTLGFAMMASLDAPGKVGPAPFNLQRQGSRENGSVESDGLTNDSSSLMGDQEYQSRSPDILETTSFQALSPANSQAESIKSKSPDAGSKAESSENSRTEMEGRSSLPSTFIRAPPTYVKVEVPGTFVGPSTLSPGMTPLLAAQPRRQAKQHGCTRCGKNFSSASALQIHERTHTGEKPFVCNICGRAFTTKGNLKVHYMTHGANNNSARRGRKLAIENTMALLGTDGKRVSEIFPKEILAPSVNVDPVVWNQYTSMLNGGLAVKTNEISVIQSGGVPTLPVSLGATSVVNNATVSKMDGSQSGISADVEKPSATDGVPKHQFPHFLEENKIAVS
Notes: 8-mer, flanks averaged, mean of replicates
ACATCTAT: 0.281
ACTGGGCA: -0.175
ATCTACTG: 0.162
ACAAGAAC: 0.201
ACGTCCCT: -0.089
GATATCCA: 0.171
AATGCCAC: -0.113
CCGCCAGG: -0.368
GACTATCC: -0.239
ATCGGATG: -0.0583
TCCTTAAA: 0.185
AATGCGGG: -0.0495
ACGTTCCA: -0.101
CCATGTGA: -0.087
CGCGAGAG: -0.23
CGGGTCGA: -0.342
CCTTGCGC: -0.213
CCCATAGA: -0.0824
GCCAGAGC: -0.303
TGTACTAA: 0.21
CGCTTTTA: 0.163
AAGGCGGG: -0.235
CCACCCTA: -0.129
ACATGAAC: 0.18
TAACCAGA: 0.098

Sample 5 — technique: RNA Bind-n-Seq; form: RNA; matrix: in vitro; concentration: not given; notes: RNA with constant flanks, ends assumed; baseline: input RNA pool; direction: higher = stronger binding; measurement: bound/input enrichment
Target: RING finger protein unkempt homolog, zinc fingers 1-6, GST-SBP tag (UNK, Homo sapiens, UniProt Q9C0B0, residues 30-357)
Sequence of UniProt Q9C0B0 (30-357, looked up): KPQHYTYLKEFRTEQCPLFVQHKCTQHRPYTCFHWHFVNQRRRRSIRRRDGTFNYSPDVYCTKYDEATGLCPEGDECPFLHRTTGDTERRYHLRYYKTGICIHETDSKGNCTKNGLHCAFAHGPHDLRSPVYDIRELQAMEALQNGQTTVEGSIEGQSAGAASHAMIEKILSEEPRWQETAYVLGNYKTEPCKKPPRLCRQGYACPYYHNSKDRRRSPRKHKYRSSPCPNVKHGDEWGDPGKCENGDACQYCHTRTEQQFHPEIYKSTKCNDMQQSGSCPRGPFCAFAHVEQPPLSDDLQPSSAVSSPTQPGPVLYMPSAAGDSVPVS
Shared flanks, not repeated: GGGAGUUCUACAGUCCGACGAUC … CAACAGAGGAUUGAGCAUCA
AGUUCCAGAACCAGAAUCAGAAAUGAAGAUGAGACUACCAAGACGAGCCAAAACCGCAGCACCCGAAAAAAGUAAACUUAACCUUGCCCAAUUUCUCAAUGAAGAUCUAAGUUAGGAAAG: 0.284 ratio
GCAAAAGUUUAUAUCAUAUUGGAUCAACCUGUGACUGCUUUAAAUCUAUUUAAACAAGGCUCCGAUAAGUUUCCAGGAGAGGUGACCCUGCUUUGUGGAAUUGCCAGGAUCUAUGAGGAA: 0.317 ratio
UGGCCUUGAUUUAGUGACAGUUUAUUCUAAUGGGGACCAUAGGUGUUAUUAGUAAAAAGACCGUGUACAAGGCCUAAGUUCAGUUUACAUUGUUCUUUGAAAUGAGUUCAUCUUUUGUGU: 1.01 ratio
GAAACCACUUAUCCAAAUACUUACAUUUUUGACUUGUUUGGAGGUGUUGAUCUUCUUGCCGAAAUUCUUAUGAGGCCUACGAUCUCUAUCCGGGGACAGAAACUGAAAAUAAGUGAUGAA: 0.567 ratio
GACAUUUCAAAAACAGGAGAAUAUUUACGAGUUAAACUACCACUAAAUCCAACUGCCCGGGAAUUUCAACCAGAUGUAAAGUCUGAAGCACUGUCUGAGGAUGUGAAGUCCAUACCAGGA: 0.139 ratio
GCUGUGUCCCUGAGUGGUGGCUUUCCCUCCUGUCACGUGACAUCCCAUUCACUCAUCUACACCCGCCCAGUGCUCCCAUUGUCCCCUGCCUCCUCUGUAAUUUUUGCCCCUUCCAGGGUA: 0.15 ratio
UAUGGUGGGGUUGGUAAUUCAUCGGUUUCUGGUCAUGGCAUUCUCCCAAGCUAUCAGGAACCCGCCGAAGAUCGUUUCAGGAAACCUCAUGCUUUUGCUGUACCUGGACAGUCAUAUCAG: 0.367 ratio
ACCACAAGUGCCACCACCUACCCCACCCCCGGUGGCCGCUGUUCCUCCAACUCCCCAGCCUUCCGCUCCUACACCUUCAGCACCCUGCCCAGCUACUCCUGCUGGACCAAAGGGAAGGGU: 0.246 ratio
UUAAUGUUCUUAAUAAAGUGUUCUUGGAGUUGAACCUAGCAGCGGAUGGCUUUCUUCCGCUCCGCCCAGUUUCCAGGGAAGCGUUGUUUCUCCAGGCUGUAAAAUGGCAGACUCUCCUGG: 0.278 ratio
AACACGAUUCCCAGUUUCUUCAACUGGUUCUCAGACCACAGCCUCCUAGAAUUCGACAGAACCGCUGAAAUUAUCAAAGGGGAGCUGUGGUCCAAUCCCCUACAAUACUAUCUGAUGGGC: 0.245 ratio
AUCAUACCAUCAAAGGAUAAGAAUAUUUUGCCAAAGGUUUUCCAUUAUUAUGGCCCUGCUUCCGAAUUUGUGCAGAUGAUAAAAUUAUCAGAUCUACCCUCCUGCUAUAUGUCGGAUAUU: 0.245 ratio

Other studies, line by line
PPARRRLRLSVDE — growth enrichment score (Saccharomyces cerevisiae; binding, competitive growth deep sequencing; peptide, cyclin D3-Cln2 fusion strain; concentration not given, RxL motif peptides; direction not given): 0.0745
PhoQ, residues 284 288 289 292 302 303 WSHMKI — fold induction (PhoP, residues 12 14 15 18 19 YHFSH (Escherichia coli, UniProt P23836); Sort-seq, refers to: YFP reporter; E. coli; PhoQ-PhoP variant library, together with: 10 µM Mg2+; baseline: high Mg2+ state, higher = stronger signaling): 2.63
GSPAKKLFTSTGL — growth enrichment score (Saccharomyces cerevisiae; binding, competitive growth deep sequencing; peptide, cyclin D3-Cln2 fusion strain; concentration not given, peptide library 1; direction not given): -0.273
MDASRQLMLNEEQ — growth enrichment score (Saccharomyces cerevisiae; binding, competitive growth deep sequencing; peptide, cyclin D3-Cln2 fusion strain; concentration not given, Cln2 score subtracted; direction not given): 0.139
EDLLKELQKQLEE — growth enrichment score (Saccharomyces cerevisiae; binding, competitive growth deep sequencing; peptide, cyclin D3-Cln2 fusion strain; concentration not given, Cln2 score subtracted; direction not given): -0.101
